Experimental data from different studies.
Compare with care: the assays were run in different laboratories. Numbers after ± are the reported error.

The IC50 of `CC1=NN(CNc2ccc(C(=O)O)c(O)c2)C(=O)/C1=N/Nn1c(-c2ccccc2)nc2ccccc2c1=O` is reported as 48.2 µM (NIH 3T3; cytotoxicity, MTT).
The IC50 of `CCCCn1cc(C(=O)O)c(=O)c2cc(F)c(N)c([N+](=O)[O-])c21` is reported as 0.26 ± 0.02 µg/mL (T47D; cell growth, SRB; 72 h).
For `O=C(Cc1ccccc1)NC(=S)Nc1nccs1`, the IC50 was 133 ± 13.7 µM (normal human PBMC; cytotoxicity, MTT; 48 h).
For `O=C1OCC(NCCc2ccc(Cl)cc2)N1/N=C/c1ccc([N+](=O)[O-])o1` (stereo not shown), the IC50 was > 100 µM (HepaRG; cell growth or viability, MTT; 24 h).
`CCCCn1cc(C(=O)O)c(=O)c2cc(F)c(Nc3cccc(OC)c3)c([N+](=O)[O-])c21` gave an IC50 of 130 ± 4.61 µg/mL (T47D; cell growth, SRB; 72 h).
`CC1C(=O)NC(=O)N1/N=C/c1ccc([N+](=O)[O-])o1` (stereo not shown) has an IC50 of > 100 µM (HepaRG; cell growth or viability, MTT; 24 h).
With `CCCCn1cc(C(=O)O)c(=O)c2cc(F)c3c(nnn3-c3cccc(OC)c3)c21` the IC50 was 143 µM (T47D; cell growth or viability, SRB).
`CC1(C)CCC(CN2CCN(c3ccc(C(=O)NS(=O)(=O)c4ccc(NCC5COCCO5)c([N+](=O)[O-])c4)c(N4CCCOc5nc6[nH]ccc6cc54)c3)CC2)=C(c2ccc(Cl)cc2)C1` (stereo not shown) has an IC50 of 6.36 µM (human platelets; platelet viability, MTS; 72 h).
The IC50 of `CCCCn1cc(C(=O)O)c(=O)c2cc(F)c3[nH]nnc3c21` is reported as 18.5 ± 1.64 µg/mL (T47D; cell growth, SRB; 72 h).
With `CCCCn1cc(C(=O)O)c(=O)c2cc(F)c(Nc3cc(OC)c(OC)c(OC)c3)c([N+](=O)[O-])c21` the IC50 was 99.3 µM (PANC-1; cell growth or viability, SRB).

Some of these lines once more:
`CC1C(=O)NC(=O)N1/N=C/c1ccc([N+](=O)[O-])o1` (stereo not shown) has an IC50 of > 100 µM (HepaRG; cell growth or viability, MTT; 24 h).
For `O=C(Cc1ccccc1)NC(=S)Nc1nccs1`, the IC50 was 133 ± 13.7 µM (normal human PBMC; cytotoxicity, MTT; 48 h).
